Measurements of several laboratories.
A part holds a random share of what one study measured. Several values in a cell are separate wells, animals, samples, runs or records.
Chain of UniProt P08581 (whole entry, looked up): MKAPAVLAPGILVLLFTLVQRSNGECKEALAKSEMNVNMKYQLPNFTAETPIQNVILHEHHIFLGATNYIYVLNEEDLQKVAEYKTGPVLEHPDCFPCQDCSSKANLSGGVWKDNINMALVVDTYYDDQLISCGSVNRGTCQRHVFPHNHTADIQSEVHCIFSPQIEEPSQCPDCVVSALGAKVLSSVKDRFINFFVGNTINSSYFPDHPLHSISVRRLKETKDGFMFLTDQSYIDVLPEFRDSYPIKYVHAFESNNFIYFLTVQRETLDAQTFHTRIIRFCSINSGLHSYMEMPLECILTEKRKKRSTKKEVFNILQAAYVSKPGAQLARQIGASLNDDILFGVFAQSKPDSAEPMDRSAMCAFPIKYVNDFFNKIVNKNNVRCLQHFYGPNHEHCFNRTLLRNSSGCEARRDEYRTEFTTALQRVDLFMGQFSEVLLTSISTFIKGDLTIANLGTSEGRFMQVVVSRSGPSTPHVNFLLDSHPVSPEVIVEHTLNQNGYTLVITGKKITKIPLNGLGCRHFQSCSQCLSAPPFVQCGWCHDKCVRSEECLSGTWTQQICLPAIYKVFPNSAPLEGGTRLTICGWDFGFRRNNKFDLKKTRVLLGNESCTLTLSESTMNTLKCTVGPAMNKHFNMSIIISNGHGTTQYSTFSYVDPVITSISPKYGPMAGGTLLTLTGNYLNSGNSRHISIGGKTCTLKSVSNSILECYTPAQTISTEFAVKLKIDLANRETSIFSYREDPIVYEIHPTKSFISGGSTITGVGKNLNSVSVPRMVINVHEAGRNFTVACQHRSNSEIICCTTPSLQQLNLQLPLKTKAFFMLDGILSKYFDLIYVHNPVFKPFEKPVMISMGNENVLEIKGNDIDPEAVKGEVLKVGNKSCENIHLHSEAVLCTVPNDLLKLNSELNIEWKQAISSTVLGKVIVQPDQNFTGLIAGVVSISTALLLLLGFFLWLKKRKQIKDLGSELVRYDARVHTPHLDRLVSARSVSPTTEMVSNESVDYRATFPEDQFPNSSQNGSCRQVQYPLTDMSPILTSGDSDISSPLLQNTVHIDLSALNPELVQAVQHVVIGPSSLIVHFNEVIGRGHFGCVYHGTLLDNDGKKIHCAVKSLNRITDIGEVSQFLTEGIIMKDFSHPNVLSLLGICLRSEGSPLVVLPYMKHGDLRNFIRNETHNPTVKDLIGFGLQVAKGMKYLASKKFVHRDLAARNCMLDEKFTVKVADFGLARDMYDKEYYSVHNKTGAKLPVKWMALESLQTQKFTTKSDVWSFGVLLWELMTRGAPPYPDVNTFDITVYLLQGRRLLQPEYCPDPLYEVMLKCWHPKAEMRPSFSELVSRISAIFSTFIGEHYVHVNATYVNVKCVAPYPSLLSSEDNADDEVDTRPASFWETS
Chain of UniProt O75676 (whole entry, looked up): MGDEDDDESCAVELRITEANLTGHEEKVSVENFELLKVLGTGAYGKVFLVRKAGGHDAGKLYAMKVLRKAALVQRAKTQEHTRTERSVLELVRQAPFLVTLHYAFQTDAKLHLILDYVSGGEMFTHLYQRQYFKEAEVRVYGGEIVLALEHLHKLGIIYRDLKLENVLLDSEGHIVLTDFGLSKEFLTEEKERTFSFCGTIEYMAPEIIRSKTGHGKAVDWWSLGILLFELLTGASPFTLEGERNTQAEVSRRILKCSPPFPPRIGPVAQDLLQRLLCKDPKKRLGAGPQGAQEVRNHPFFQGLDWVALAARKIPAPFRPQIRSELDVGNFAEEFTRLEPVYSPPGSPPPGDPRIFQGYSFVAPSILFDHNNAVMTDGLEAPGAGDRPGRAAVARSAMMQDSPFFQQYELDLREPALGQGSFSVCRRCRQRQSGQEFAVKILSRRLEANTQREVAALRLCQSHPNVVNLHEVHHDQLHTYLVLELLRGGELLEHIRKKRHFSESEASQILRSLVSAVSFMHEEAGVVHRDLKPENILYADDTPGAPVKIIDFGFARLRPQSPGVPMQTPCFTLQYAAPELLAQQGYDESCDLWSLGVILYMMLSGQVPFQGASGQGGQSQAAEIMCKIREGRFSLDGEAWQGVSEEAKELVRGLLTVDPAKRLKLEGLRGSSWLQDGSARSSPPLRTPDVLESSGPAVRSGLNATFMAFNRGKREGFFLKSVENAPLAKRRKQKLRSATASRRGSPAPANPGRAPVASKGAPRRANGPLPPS
Chain of UniProt O00506 (whole entry, looked up): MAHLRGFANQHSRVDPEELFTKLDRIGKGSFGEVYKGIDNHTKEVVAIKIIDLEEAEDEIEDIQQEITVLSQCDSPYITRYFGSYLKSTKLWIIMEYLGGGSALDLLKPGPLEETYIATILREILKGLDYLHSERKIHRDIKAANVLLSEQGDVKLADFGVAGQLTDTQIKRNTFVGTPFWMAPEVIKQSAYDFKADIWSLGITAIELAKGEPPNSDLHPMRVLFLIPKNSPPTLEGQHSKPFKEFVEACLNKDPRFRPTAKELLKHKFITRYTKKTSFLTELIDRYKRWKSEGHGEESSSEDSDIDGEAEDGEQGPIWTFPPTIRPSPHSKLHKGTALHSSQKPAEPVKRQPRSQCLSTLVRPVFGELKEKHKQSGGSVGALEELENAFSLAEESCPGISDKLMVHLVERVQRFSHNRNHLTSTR
Chain of UniProt Q14680 (whole entry, looked up): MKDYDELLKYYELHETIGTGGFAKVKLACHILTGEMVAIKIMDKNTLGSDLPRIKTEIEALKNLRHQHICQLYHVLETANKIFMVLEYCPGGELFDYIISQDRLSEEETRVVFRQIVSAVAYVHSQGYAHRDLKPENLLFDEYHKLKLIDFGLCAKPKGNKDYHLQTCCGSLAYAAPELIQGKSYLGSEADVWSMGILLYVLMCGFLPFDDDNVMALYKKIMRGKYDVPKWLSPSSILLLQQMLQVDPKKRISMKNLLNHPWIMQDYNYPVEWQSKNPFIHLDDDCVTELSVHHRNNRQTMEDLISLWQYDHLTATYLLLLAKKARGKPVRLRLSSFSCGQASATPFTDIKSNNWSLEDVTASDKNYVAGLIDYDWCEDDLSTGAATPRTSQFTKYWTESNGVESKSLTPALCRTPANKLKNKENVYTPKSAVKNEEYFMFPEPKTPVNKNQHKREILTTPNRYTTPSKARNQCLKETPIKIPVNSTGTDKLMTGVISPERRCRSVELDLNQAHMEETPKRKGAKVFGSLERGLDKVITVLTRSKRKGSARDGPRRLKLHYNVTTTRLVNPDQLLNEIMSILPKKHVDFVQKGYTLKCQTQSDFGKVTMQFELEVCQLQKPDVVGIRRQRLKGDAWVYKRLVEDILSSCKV
Chain of UniProt Q8WU08 (whole entry, looked up): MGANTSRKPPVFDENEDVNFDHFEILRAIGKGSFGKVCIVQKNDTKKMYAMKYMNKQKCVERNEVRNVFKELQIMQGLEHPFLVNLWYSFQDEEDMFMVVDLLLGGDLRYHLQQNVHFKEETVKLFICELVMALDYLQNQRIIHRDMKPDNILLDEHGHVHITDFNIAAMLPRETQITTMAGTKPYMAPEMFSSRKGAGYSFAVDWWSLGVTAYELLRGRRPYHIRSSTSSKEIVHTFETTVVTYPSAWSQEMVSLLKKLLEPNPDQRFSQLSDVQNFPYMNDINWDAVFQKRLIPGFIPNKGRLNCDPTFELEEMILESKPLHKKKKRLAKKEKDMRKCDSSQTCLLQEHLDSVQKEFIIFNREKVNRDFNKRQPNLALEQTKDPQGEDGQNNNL

Block 1 — host: mouse; sample: microsomes or S9; tested at: 2 µM; time: 0.5 h
| SMILES | remaining compound [%] |
| --- | --- |
| CCOc1ccc(C(=O)N2CCc3cc(OC)c(OC)cc3C2CC2CC3c4cc(OC)c(OC)cc4CCN3CC2CC)cc1 (centres unmarked) | 6.18 |
| CNC(=O)[C@@H]1C[C@H](Oc2ccccc2)CN1C1CCN(C(=O)NC(C)C)CC1 | 69.1 |
| CCN(CC)Cc1ccc2c(c1)CN(C(=O)Nc1ccc(OC)cc1)CCO2 | 2.12 |
| O=C(CN1C(C(=O)c2ccccc2)=C(O)c2ccccc2S1(=O)=O)Nc1ccc(Br)cc1F | 25.9 |
| CCCNC1=Nc2ccccc2S(=O)(=O)N1CCC | 3.75 |
| Cc1ccc(Nc2c(-c3cc(Br)ccc3O)nc3ncccn23)c(C)c1 | 8.25 |
| CC(C)c1csc2nc(-c3cn(C)c(=O)[nH]c3=O)[nH]c(=O)c12 | 48.3 |
| CC(C)COc1cc(=O)n2c(c1C(=O)NCc1ccc(C(F)(F)F)cc1)CCCCC2 | 3.75 |

Block 2 — observed: cell-free assay; method: competition with immobilised ligand; tested at: 1 µM
Structure (SMILES): CCCCN(CCCC)C(=O)CN1C[C@@H](c2cc(OC)c3c(c2)OCO3)[C@H](C(=O)O)[C@H]1CC(C)(C)CCC
| target | remaining binding |
| --- | --- |
| PRKCD (Homo sapiens, UniProt Q05655) | 98.2% |
| EPHA1 (Homo sapiens, UniProt P21709) | 85.5% |
| BLK (Homo sapiens, UniProt P51451) | 100% |
| ROS1 (Homo sapiens, UniProt P08922) | 100% |
| PRKAA1 (Homo sapiens, UniProt Q13131) | 96.7% |
| ACVR1 (Homo sapiens, UniProt Q04771) | 100% |
| MELK (Homo sapiens, UniProt Q14680) | 100% |
| MAP3K5 (Homo sapiens, UniProt Q99683) | 100% |
| STK25 (Homo sapiens, UniProt O00506) | 88.1% |
| PIK3CA (Homo sapiens, UniProt P42336, E542K) | 100% |
| Ribosomal protein S6 kinase alpha-4, C-terminal kinase domain (RPS6KA4, Homo sapiens, UniProt O75676) | 97.2% |
| YES1 (Homo sapiens, UniProt P07947) | 95.3% |
| Tyrosine-protein kinase ABL1, phosphorylated (ABL1, Homo sapiens, UniProt P00519, T315I) | 89.2% |
| STK32A (Homo sapiens, UniProt Q8WU08) | 100% |
| MET (Homo sapiens, UniProt P08581) | 100% |
| AKT1 (Homo sapiens, UniProt P31749) | 85.7% |

Block 3 — observed: enzyme activity; action: inhibitor; tested at: 0.5 µM; reference: control
Target: Ephrin type-A receptor 4 (EPHA4, Homo sapiens, UniProt P54764)
Chain of UniProt P54764 (whole entry, looked up): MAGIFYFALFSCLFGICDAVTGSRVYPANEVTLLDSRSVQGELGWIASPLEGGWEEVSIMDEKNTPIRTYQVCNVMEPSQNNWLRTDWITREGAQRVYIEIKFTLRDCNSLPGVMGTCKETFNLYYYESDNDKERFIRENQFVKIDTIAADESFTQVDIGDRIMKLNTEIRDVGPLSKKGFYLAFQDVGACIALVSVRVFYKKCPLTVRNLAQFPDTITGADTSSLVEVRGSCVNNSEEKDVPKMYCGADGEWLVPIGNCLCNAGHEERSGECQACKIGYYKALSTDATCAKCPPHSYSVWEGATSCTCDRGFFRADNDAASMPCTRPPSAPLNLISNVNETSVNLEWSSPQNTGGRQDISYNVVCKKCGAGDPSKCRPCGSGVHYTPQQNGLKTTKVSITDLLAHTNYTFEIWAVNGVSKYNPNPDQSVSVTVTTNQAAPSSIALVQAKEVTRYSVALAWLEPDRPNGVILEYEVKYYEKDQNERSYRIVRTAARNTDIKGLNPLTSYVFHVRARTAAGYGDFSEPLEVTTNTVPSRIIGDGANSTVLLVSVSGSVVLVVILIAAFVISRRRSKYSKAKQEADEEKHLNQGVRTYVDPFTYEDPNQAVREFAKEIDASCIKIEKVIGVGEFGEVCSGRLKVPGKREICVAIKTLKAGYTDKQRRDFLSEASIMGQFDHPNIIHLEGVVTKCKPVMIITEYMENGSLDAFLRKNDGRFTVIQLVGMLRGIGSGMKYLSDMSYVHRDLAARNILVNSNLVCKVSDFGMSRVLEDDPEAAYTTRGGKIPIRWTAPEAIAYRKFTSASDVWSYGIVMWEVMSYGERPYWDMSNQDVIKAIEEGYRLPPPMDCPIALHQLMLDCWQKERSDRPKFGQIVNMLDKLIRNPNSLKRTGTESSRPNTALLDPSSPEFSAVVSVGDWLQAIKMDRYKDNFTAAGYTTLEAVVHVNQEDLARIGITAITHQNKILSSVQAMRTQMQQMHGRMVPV
| SMILES | remaining activity |
| --- | --- |
| CCCCc1c(-c2ccc(O)cc2)[nH]c2nccnc12 | 87.5% |
| NC(=O)c1cccc(-c2cc(Nc3ccc(OC(F)(F)F)cc3)ncn2)c1 | 94.4% |
| CC(C)(C)c1nc2c3cc[nH]c(=O)c3c3cc(F)ccc3c2[nH]1 | 101% |
| CNc1cc2c(Nc3cccc(Br)c3)ncnc2cn1 | 94.2% |
| O=C(O)/C=C/c1cc(Br)c(Br)c(Br)c1Br | 88.8% |
| O=Nc1c(-c2c(O)[nH]c3ccccc23)[nH]c2ccccc12 | 89.4% |
| NC(=O)c1ccc(-c2nc(-c3ccc4c(c3)OCCO4)c(-c3ccccn3)[nH]2)cc1 | 92.5% |
| CC(C)n1cnc2c(Nc3cccc(Cl)c3)nc(NCCO)nc21 | 87.5% |
| Nc1nc(Nc2ccc(S(N)(=O)=O)cc2)nn1C(=S)Nc1c(F)cccc1F | 54.8% |
| O=C(c1ccccc1)c1ccc(N2CCOCC2)cc1O | 103% |

Single results of other studies
| Structure (SMILES) | assay | system | setting | quantity | result |
| --- | --- | --- | --- | --- | --- |
| CCCN1C(=O)[C@H](CC(C)C)NC(=O)[C@@H](N(C)C(=O)[C@H](CC2CCC2)NC(=O)[C@@H]2C[C@@H](F)CN2C(=O)[C@@](C)(O)C(F)(F)F)CCCCNC(=O)C2(CC2)NC(=O)[C@@H]1Cc1cc(Cl)ccc1Cl | immunohistochemistry | mice, NCI-H69 xenograft, tumour | intravenous, 100 mg/kg once daily, 18 h | phospho-KNL1 positive cells | 10.2% and 2.8% |

Excerpt of the above (block 2):
| target | remaining binding |
| --- | --- |
| MAP3K5 (Homo sapiens, UniProt Q99683) | 100% |
| STK25 (Homo sapiens, UniProt O00506) | 88.1% |
| PIK3CA (Homo sapiens, UniProt P42336, E542K) | 100% |
| Ribosomal protein S6 kinase alpha-4, C-terminal kinase domain (RPS6KA4, Homo sapiens, UniProt O75676) | 97.2% |
| YES1 (Homo sapiens, UniProt P07947) | 95.3% |
| Tyrosine-protein kinase ABL1, phosphorylated (ABL1, Homo sapiens, UniProt P00519, T315I) | 89.2% |
